Results pooled from the literature.
Numbered parts are unrelated; each lists some results of a single study. Positions count from the first letter of the parent shown.

Set 1 — method: RNAcompete; molecule type: RNA; sample: in vitro; tested at: 20 nM; setting: 7-mer, probes averaged, single round; reference: mean of 7-mers; direction: higher = stronger binding
Target: PABPC1L2, full length, GST fusion (mouse, UniProt A0ABA7IW68)
Residues (chain): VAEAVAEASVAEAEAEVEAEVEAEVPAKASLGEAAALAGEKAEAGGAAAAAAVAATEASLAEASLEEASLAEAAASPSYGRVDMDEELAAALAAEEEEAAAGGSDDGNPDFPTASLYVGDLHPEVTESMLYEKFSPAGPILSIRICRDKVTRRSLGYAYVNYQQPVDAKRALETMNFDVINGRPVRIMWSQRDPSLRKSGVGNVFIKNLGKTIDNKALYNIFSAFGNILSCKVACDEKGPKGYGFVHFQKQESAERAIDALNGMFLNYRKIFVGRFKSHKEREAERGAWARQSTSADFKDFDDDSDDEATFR
With `AGCAAAC` the 7-mer Z-score was 0.468.
With `AUUACAA` the 7-mer Z-score was 0.292.
With `CCUGGGC` the 7-mer Z-score was -0.246.
`GUAUCGU` gave a 7-mer Z-score of -0.32.
With `CCCUGGA` the 7-mer Z-score was -0.211.
For `AUAUCUG`, the 7-mer Z-score was -0.164.
`AUGGUAU` gave a 7-mer Z-score of -0.0573.
With `CCUGGUA` the 7-mer Z-score was -0.197.
For `AGGACUU`, the 7-mer Z-score was 0.0189.
With `GAUUCCA` the 7-mer Z-score was -0.0301.
`UGACACA` has a 7-mer Z-score of 0.0189.
The 7-mer Z-score of `AGCUUCC` is reported as -0.278.
`AGAAAAU` gave a 7-mer Z-score of 3.85.
The 7-mer Z-score of `GACUUAG` is reported as -0.164.
`UGGAAGG` has a 7-mer Z-score of 0.231.

Set 2 — method: universal PBM; molecule type: double-stranded DNA, one strand shown; sample: in vitro; tested at: not given; direction: higher = stronger binding
Target: Sal-like protein 4, full length isoform B (SALL4, Homo sapiens, UniProt Q9UJQ4-2, residues 1-616)
Setting: 8-mer, flanks averaged, mean of replicates
Target sequence (chain): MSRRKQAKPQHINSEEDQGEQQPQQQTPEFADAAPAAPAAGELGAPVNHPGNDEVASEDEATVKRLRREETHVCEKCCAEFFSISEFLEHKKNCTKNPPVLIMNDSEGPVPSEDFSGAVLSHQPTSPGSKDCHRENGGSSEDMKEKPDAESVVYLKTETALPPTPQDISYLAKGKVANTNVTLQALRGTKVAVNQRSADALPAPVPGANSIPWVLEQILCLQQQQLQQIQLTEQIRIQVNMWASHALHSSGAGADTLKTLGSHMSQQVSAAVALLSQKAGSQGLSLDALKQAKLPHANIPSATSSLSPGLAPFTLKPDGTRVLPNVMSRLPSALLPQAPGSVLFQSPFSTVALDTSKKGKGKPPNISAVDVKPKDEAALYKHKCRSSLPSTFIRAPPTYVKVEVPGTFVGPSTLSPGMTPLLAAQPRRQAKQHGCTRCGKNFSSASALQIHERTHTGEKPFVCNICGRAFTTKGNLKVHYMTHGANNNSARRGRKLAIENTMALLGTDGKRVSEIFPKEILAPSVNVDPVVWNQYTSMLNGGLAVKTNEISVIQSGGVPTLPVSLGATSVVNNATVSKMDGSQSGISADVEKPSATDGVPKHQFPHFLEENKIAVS
The E-score of `ATGGGAAA` is reported as 0.0334.
With `CCAGCTGC` the E-score was -0.354.
`TAGAATGA` gave an E-score of 0.172.
`ACGGACCG` has an E-score of -0.311.
`CCTTTTCA` has an E-score of 0.0741.
`AATTGATA` has an E-score of 0.311.
The E-score of `GTAATACA` is reported as 0.261.
With `TACCCTGA` the E-score was -0.0963.
`AAACGTGT` has an E-score of 0.126.
The E-score of `GGCCTTGA` is reported as -0.189.
The E-score of `ACATAGAA` is reported as 0.117.
`ATCAGACA` has an E-score of 0.00721.
With `CCTTCTGC` the E-score was -0.233.
For `ACGACAAA`, the E-score was 0.145.
For `CTTAGCTC`, the E-score was -0.316.
`GAATGCAC` gave an E-score of -0.0473.
The E-score of `CAAGTCAG` is reported as -0.193.
`CGAAACTC` has an E-score of -0.171.
For `AAATCACT`, the E-score was 0.196.
`ACCAAACA` gave an E-score of 0.238.
For `AACCACGA`, the E-score was -0.0632.

Set 3 — target: CCND2, cyclin fold, Cln2 fusion (human); method: yeast growth competition, sequencing; sample: yeast; setting: strong parent motif; reference: not given; direction: higher = stronger binding
Starting sequence: PKN2 docking peptide (human); VSAVRKLDFSDTM
Under “normalised enrichment score”, `VSACRKLDFSDTM [V4C]` is recorded as 3.66.
Under “normalised enrichment score”, `VSAVAKLDFSDTM [R5A]` is recorded as 0.685.
Under “normalised enrichment score”, `VSAVRKLDFSSTM [D11S]` is recorded as 3.41.
Under “normalised enrichment score”, `VSAVRKLDYSDTM [F9Y]` is recorded as 0.482.
`VSAVRKLSFSDTM [D8S]` — result for “normalised enrichment score”: 3.01.
Under “normalised enrichment score”, `VSAVIKLDFSDTM [R5I]` is recorded as 0.922.
For `VGAVRKLDFSDTM [S2G]`, “normalised enrichment score” read 3.28.
Under “normalised enrichment score”, `VSAVKKLDFSDTM [R5K]` is recorded as 1.18.
For `VAAVRKLDFSDTM [S2A]`, “normalised enrichment score” read 1.77.
For `VSAVRKLDFSKTM [D11K]`, “normalised enrichment score” read 3.05.
`VSAVRKLKFSDTM [D8K]` — result for “normalised enrichment score”: 1.18.
For `VSAVRKLDCSDTM [F9C]`, “normalised enrichment score” read 0.186.
`VSAVRKLDFSDVM [T12V]`: “normalised enrichment score” 2.95.
For `VSAVRKDDFSDTM [L7D]`, “normalised enrichment score” read 0.174.
`VSAVRKLDFSDSM [T12S]` — result for “normalised enrichment score”: 3.83.
Under “normalised enrichment score”, `VSAVRKLDFSDGM [T12G]` is recorded as 3.43.
Under “normalised enrichment score”, `VSAVRKLDRSDTM [F9R]` is recorded as 0.0512.
`VSAVRKLHFSDTM [D8H]`: “normalised enrichment score” 1.54.
For `VRAVRKLDFSDTM [S2R]`, “normalised enrichment score” read 3.
`VSANRKLDFSDTM [V4N]`: “normalised enrichment score” 1.46.
`VSAVDKLDFSDTM [R5D]`: “normalised enrichment score” 0.264.
`VSAVRKLDFSLTM [D11L]` — result for “normalised enrichment score”: 2.91.
`VSAQRKLDFSDTM [V4Q]`: “normalised enrichment score” 2.44.
`VSAVTKLDFSDTM [R5T]`: “normalised enrichment score” 0.432.
Under “normalised enrichment score”, `VSAVRKLDFCDTM [S10C]` is recorded as 2.97.

Single results of other studies
`PhoQ, residues 284 288 289 292 302 303 NSMLDC` has a fold induction of 1.31 (PhoP, residues 12 14 15 18 19 LHHVQ (Escherichia coli, UniProt P23836); Sort-seq, item: YFP reporter; E. coli; PhoQ-PhoP variant library, together with: 10 µM Mg2+; reference: high Mg2+ state, higher = stronger signaling).

For quick reference, copied from above (set 2):
`GAATGCAC` gave an E-score of -0.0473.
`ACCAAACA` gave an E-score of 0.238.
`ACGGACCG` has an E-score of -0.311.
`AATTGATA` has an E-score of 0.311.
The E-score of `GTAATACA` is reported as 0.261.
The E-score of `ATGGGAAA` is reported as 0.0334.
`AAACGTGT` has an E-score of 0.126.
With `TACCCTGA` the E-score was -0.0963.
